# Published values pooled from the literature.
# Every numbered part comes from another study and shows a few of its results, in no order.
# Sequence of UniProt P10721 (whole entry, unmodified, looked up): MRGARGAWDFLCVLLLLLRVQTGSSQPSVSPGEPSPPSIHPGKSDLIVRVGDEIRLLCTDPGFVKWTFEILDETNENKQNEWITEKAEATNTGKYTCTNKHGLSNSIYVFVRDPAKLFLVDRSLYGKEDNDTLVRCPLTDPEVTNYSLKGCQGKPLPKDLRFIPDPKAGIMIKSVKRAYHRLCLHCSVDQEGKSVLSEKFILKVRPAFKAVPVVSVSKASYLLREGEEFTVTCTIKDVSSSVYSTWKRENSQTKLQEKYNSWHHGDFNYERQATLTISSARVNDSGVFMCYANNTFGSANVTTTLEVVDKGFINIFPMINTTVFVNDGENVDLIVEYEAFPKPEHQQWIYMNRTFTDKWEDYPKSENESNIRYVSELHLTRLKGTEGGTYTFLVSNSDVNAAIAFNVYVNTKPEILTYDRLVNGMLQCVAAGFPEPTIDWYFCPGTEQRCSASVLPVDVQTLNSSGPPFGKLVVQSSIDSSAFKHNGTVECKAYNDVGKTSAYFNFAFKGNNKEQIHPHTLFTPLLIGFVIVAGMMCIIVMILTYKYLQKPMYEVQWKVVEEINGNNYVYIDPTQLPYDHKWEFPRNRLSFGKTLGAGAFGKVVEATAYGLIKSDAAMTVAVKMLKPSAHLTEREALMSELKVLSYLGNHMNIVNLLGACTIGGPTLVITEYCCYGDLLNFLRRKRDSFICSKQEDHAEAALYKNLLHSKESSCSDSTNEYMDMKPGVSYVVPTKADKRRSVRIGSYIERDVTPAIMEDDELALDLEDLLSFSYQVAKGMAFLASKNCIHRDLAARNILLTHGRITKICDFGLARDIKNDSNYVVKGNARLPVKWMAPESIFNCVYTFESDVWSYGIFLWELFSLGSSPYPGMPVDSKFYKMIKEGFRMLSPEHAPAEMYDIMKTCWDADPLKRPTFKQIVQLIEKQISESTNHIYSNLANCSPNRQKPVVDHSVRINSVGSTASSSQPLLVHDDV
# Sequence of UniProt P35968 (whole entry, looked up): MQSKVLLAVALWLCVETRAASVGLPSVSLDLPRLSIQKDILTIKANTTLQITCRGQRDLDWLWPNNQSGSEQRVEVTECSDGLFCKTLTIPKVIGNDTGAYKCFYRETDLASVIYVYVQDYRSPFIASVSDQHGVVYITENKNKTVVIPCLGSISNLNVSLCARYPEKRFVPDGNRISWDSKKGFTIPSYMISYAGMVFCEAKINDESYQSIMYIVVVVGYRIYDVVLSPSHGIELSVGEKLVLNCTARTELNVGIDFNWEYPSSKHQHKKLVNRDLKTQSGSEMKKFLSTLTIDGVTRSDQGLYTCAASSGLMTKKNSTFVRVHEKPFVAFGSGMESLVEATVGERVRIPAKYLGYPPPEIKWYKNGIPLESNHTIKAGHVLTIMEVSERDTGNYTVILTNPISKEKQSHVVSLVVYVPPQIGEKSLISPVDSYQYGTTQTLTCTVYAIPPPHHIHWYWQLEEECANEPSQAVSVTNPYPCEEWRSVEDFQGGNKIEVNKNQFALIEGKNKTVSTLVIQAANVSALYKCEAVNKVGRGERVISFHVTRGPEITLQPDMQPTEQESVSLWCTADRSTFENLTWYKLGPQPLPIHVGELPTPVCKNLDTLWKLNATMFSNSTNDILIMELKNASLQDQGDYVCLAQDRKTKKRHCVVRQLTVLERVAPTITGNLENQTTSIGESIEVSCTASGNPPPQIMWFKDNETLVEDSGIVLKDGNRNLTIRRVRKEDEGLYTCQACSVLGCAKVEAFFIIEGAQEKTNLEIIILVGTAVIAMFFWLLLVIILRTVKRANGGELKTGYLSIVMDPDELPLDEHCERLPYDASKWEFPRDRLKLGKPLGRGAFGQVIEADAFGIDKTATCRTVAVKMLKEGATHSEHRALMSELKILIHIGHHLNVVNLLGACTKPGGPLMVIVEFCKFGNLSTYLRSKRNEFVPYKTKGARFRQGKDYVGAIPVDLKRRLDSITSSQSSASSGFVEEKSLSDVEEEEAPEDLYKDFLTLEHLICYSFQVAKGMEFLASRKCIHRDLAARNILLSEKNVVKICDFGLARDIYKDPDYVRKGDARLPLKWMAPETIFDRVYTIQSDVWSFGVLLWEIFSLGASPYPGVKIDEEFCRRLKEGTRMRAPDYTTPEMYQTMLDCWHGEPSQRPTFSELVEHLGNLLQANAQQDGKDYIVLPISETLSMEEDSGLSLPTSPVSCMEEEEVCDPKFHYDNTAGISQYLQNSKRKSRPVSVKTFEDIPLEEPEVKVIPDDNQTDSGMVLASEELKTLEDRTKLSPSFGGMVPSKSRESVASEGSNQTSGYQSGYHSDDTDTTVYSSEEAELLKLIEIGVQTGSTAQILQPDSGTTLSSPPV
# Sequence of UniProt Q9UIK4 (whole entry, looked up): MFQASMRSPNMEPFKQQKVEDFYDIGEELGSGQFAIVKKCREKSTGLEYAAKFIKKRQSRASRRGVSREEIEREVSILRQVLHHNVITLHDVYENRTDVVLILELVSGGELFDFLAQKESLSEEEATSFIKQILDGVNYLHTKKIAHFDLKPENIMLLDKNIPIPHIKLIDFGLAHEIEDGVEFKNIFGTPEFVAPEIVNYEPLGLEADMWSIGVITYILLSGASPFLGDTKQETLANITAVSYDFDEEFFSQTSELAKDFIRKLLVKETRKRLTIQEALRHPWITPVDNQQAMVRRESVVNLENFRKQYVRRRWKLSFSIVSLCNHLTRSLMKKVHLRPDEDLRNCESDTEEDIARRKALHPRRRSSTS
# Sequence of UniProt P07949 (whole entry, unmodified, looked up): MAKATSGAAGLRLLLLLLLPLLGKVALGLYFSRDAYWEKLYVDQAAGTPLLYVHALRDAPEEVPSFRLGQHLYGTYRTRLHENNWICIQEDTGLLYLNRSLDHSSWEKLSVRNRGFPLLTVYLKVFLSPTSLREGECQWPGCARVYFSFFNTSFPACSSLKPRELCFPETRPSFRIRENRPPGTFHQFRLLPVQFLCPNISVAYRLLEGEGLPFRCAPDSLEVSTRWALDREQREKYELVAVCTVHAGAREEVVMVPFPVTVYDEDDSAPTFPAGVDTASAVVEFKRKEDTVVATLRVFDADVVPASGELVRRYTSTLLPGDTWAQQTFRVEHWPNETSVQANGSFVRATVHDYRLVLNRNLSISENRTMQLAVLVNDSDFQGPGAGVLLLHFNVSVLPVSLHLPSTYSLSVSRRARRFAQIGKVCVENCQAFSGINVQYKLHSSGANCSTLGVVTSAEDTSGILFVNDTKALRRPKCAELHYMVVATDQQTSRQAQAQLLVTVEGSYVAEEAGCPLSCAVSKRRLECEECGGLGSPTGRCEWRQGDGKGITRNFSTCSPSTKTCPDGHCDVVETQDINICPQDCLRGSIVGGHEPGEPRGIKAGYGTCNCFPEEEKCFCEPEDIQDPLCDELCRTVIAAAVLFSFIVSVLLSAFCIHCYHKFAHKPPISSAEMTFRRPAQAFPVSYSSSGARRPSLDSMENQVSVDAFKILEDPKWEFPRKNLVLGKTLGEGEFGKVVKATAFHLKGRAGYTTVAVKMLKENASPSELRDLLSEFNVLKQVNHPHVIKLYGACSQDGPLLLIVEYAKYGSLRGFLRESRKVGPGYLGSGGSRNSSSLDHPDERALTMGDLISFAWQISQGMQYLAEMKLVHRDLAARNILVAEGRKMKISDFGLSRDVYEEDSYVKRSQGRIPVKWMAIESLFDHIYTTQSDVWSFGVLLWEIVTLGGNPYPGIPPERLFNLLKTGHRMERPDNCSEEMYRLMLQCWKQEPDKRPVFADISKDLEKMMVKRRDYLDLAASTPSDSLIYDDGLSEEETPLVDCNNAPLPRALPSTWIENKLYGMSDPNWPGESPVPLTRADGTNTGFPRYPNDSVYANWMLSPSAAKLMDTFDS

# Set 1
# Target: Protein-tyrosine kinase 6 (PTK6, Homo sapiens, UniProt Q13882)
# Sequence of UniProt Q13882 (whole entry, looked up): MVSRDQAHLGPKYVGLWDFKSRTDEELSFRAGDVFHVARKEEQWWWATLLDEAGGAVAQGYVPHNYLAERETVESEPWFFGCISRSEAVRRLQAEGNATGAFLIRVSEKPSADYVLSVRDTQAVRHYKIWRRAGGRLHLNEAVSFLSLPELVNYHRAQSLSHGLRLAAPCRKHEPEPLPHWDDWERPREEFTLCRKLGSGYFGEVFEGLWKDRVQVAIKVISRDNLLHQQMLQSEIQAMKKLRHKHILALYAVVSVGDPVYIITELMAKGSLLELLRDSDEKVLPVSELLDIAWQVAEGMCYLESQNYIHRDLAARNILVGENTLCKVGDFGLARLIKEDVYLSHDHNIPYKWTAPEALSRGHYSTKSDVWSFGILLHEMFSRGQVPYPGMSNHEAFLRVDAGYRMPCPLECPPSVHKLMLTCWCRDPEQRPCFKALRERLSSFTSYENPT
# Observed: enzyme activity
# Mode: inhibitor
# Concentration: 0.5 µM
# Baseline: control
SMILES,remaining activity [%]
CCN(CC)CCNC(=O)c1c(C)[nH]c(/C=C2\C(=O)Nc3ccc(F)cc32)c1C,84.5
CCOc1nc(NC(=O)Cc2cc(OC)ccc2OC)cc(N)c1C#N,93.6
CCN(CC)CCNC(=O)c1c(C)[nH]c(/C=C2\C(=O)Nc3ccc(Cl)cc32)c1C,51.3
O=C(Nc1cccc(Nc2nccc(Nc3cccc(C(F)(F)F)c3)n2)c1)C1CC1,72.3
N#C/C(=C\c1ccc(O)c(O)c1)C(=O)NCc1ccccc1,86.7
N#Cc1c(NC(=O)c2cccc3ccccc23)sc2c1CCCC2,89.8
CN(C)C[C@H]1CCn2c(c(C3=C(c4cn(C)c5ccccc45)C(=O)NC3=O)c3ccccc32)C1,90.4
COc1cc2ncnc(Nc3ccc(O)c(Br)c3)c2cc1OC,20.1
Ic1cccc(CSc2nnc(-c3ccncc3)o2)c1,104
c1ccc(-c2[nH]ncc2-c2ccnc3ccccc23)nc1,70.9
COc1cc2ncnc(Nc3cccc(Cl)c3)c2cc1OC,39
O=C1C(Cl)=C(N2C(=O)CCC2=O)C(=O)c2ccccc21,94.8

# Set 2
# Cell line: Huh-7
# Concentration: 10 µM
# Time: 24 h
SMILES,viability [%]
[H]/N=C(\N/C(=N/[H])Nc1ccc(Cl)cc1)NC(C)C,102
CC(=O)Nc1ccc(OCC(O)CNC(C)C)cc1 (stereo not shown),103
NC(=O)C1(N2CCCCC2)CCN(CCCC(=O)c2ccc(F)cc2)CC1,98.2
CCCNC(C)C(=O)Nc1ccccc1C (stereo not shown),104
O=C1OC2(c3ccc(O)cc3Oc3cc(O)ccc32)c2ccccc21,99.6
Oc1c(I)cc(I)c2cccnc12,103
Nc1ccc(S(=O)(=O)Nc2cnc3ccccc3n2)cc1,98.4
Cc1ncc(CO)c(CO)c1O,99.6
CC(=O)OCC(=O)[C@H]1CC[C@H]2[C@@H]3CCC4=CC(=O)CC[C@]4(C)[C@H]3CC[C@]12C,83.6
N=C(N)NC(=O)c1nc(Cl)c(N)nc1N,98.2
Cc1c(N(C)C)c(=O)n(-c2ccccc2)n1C,106

# Set 3
# SMILES: CNCc1ccccc1-c1csc([C@H](C)Nc2nc(C)nc3cc(OC)c(OC)cc23)c1
# Observed: cell-free assay
# Technique: competition with immobilised ligand
# Concentration: 1 µM
target,remaining binding [%]
"DAPK2 (Homo sapiens, UniProt Q9UIK4)",100
"STK33 (Homo sapiens, UniProt Q9BYT3)",73
"WEE2 (Homo sapiens, UniProt P0C1S8)",100
"Mast/stem cell growth factor receptor Kit, autoinhibited (KIT, Homo sapiens, UniProt P10721)",70
"MAPK10 (Homo sapiens, UniProt P53779)",74
"STK17A (Homo sapiens, UniProt Q9UEE5)",100
"EGFR (Homo sapiens, UniProt P00533, G719S)",84
"PRKACA (Homo sapiens, UniProt P17612)",100
"CSK (Homo sapiens, UniProt P41240)",100
"GRK7 (Homo sapiens, UniProt Q8WTQ7)",89
"RET (Homo sapiens, UniProt P07949, V804L)",99
"KDR (Homo sapiens, UniProt P35968)",91
"KIT (Homo sapiens, UniProt P10721, T670I/V559D)",100
"MAPK3 (Homo sapiens, UniProt P27361)",100
"PAK3 (Homo sapiens, UniProt O75914)",87
"PRKACB (Homo sapiens, UniProt P22694)",100
"MAP3K1 (Homo sapiens, UniProt Q13233)",97
"CDKL1 (Homo sapiens, UniProt Q00532)",100

# Set 4
# Target: Beta-1 adrenergic receptor (ADRB1, Homo sapiens, UniProt P08588)
# Sequence of UniProt P08588 (whole entry, looked up): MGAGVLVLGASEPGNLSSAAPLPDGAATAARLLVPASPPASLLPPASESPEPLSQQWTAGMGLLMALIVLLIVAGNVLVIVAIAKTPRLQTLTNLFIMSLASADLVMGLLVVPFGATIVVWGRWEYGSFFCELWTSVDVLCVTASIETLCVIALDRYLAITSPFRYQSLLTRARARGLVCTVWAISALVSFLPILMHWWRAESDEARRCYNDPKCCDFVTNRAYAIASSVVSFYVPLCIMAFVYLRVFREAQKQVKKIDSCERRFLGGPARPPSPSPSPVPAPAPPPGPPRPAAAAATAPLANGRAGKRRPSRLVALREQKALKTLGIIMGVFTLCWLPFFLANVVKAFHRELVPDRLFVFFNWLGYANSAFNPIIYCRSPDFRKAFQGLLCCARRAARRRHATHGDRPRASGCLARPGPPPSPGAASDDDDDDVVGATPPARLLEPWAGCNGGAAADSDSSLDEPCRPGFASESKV
# Mode: agonist
Structure (SMILES),EC50 [µM]
O=C(Nc1ccc(-c2csc3c(=O)cc(N4CCOCC4)oc23)cc1)c1ccc(F)c(F)c1Nc1ccc(I)cc1F,≥ 100
O=C(Nc1cccc(C(F)(F)F)c1)N[C@H]1CO[C@H]2[C@@H]1OC[C@@H]2Nc1nccc(-c2ccc(-c3ccccc3)cc2)n1,≥ 100
COCCN1CCNc2nc(COc3cccc(N4CCOCC4)c3)n(Cc3ccccc3)c2C1=O,≥ 100
Cc1noc2c(-c3cccc(O)c3)cc(-c3cccs3)nc12,≥ 100
CC(C)n1cc(-c2cc(C(=O)N3CCC(C)(C)C3)c3ccc(F)cc3n2)cn1,≥ 100
Fc1ccc(-c2c[nH]c([C@@H]3COCCN3Cc3cnc4ccccc4c3)n2)c(F)c1,≥ 100
c1ccc2c(Oc3nc(Nc4ccc(N5CCOCC5)cc4)c4ncn(C5CCCCC5)c4n3)cccc2c1,≥ 100
CCN(CC)c1ccc(C(=C2C=CC(=[N+](CC)CC)C=C2)c2cc(S(=O)(=O)O)ccc2S(=O)(=O)[O-])cc1,25.1
Clc1ccccc1-c1cc(C2CCN(Cc3cc4n(n3)CCNC4)CC2)[nH]n1,≥ 100
COc1cc(/C=C/C(=O)c2c(O)ccc3c(C)cc(=O)oc23)ccc1O,≥ 100
CC(C)c1ccccc1Nc1nnc(-c2cc(-c3cccnc3)nc3ccccc23)s1,≥ 100
COc1ccccc1N1CCN(C(=O)c2cc(Br)cn2C(C)C)CC1,≥ 100
Ic1ccc(Nc2nc(NCCN3CCOCC3)nc(N3CCOCC3)n2)cc1,≥ 100
Cc1noc(C)c1-c1cnc(Nc2cccc(C(F)(F)F)c2)c2c1CCO2,≥ 100

# A few entries again (set 1):
SMILES,remaining activity [%]
COc1cc2ncnc(Nc3cccc(Cl)c3)c2cc1OC,39
CN(C)C[C@H]1CCn2c(c(C3=C(c4cn(C)c5ccccc45)C(=O)NC3=O)c3ccccc32)C1,90.4
Ic1cccc(CSc2nnc(-c3ccncc3)o2)c1,104
